Experimental data collected from several papers.
Compare with care: the assays were run in different laboratories.
B1: PGD1 1-397 (Saccharomyces cerevisiae, UniProt P40356); chain MDSIIPAGVKLDDLQVILAKNENETRDKVCKQINEARDEILPLRLQFNEFIQIMANIDQEGSKQADRMAKYLHIRDKILQLNDRFQTLSSHLEALQPLFSTVPEYLKTADNRDRSFQLLEPLSTYNKNGNAVCSTATVVSTNHSAAASTPTTTATPHANPITHAHSLSNPNSTATMQHNPLAGKRGPKSGSTMGTPTVHNSTAAAPIAAPKKPRKPRQTKKAKAQAQAQAQAQAQVYAQQSTVQTPITASMAAALPNPTPSMINSVSPTNVMGTPLTNMMSPMGNAYSMGAQNQGGQVSMSQFNGSGNGSNPNTNTNSNNTPLQSQLNLNNLTPANILNMSMNNDFQQQQQQQQQQQQPQPQYNMNMGMNNMNNGGKELDSLDLNNLELGGLNMDFL
B2: nlpI (Escherichia coli, UniProt P0AFB1); sequence looked up; chain CSNTSWRKSEVLAVPLQPTLQQEVILARMEQILASRALTDDERAQLLYERGVLYDSLGLRALARNDFSQALAIRPDMPEVFNYLGIYLTQAGNFDAAYEAFDSVLELDPTYNYAHLNRGIALYYGGRDKLAQDDLLAFYQDDPNDPFRSLWLYLAEQKLDEKQAKEVLKQHFEKSDKEQWGWNIVEFYLGNISEQTLMERLKADATDNTSLAEHLSETNFYLGKYYLSLGDLDSATALFKLAVANNVHNFVEHRYALLELSLLGQDQDDLAESDQQ
B3: SIR4 1150-1358 (Saccharomyces cerevisiae, UniProt P11978); sequence looked up; chain KTLPEKKQFDSIFNSNKAKIIPGNGKHASENISLSFSRPASYGYFSVGKRVPIVEDRRVKQLDDITDSNTTEILTSVDVLGTHSQTGTQQSNMYTSTQKTELEIDNKDSVTECSKDMKEDGLSFVDIVLSKAASALDEKEKQLAVANEIIRSLSDEVMRNEIRITSLQGDLTFTKKCLENARSQISEKDAKINKLMEKDFQVNKEIKPY
B4: SF3B1 454-1304 R625H (Homo sapiens, UniProt O75533); chain KSVNDQPSGNLPFLKPDDIQYFDKLLVDVDESTLSPEEQKERKIMKLLLKIKNGTPPMRKAALRQITDKAREFGAGPLFNQILPLLMSPTLEDQERHLLVKVIDRILYKLDDLVRPYVHKILVVIEPLLIDEDYYARVEGREIISNLAKAAGLATMISTMRPDIDNMDEYVHNTTARAFAVVASALGIPSLLPFLKAVCKSKKSWQARHTGIKIVQQIAILMGCAILPHLRSLVEIIEHGLVDEQQKVRTISALAIAALAEAATPYGIESFDSVLKPLWKGIRQHRGKGLAAFLKAIGYLIPLMDAEYANYYTREVMLILIREFQSPDEEMKKIVLKVVKQCCGTDGVEANYIKTEILPPFFKHFWQHRMALDRRNYRQLVDTTVELANKVGAAEIISRIVDDLKDEAEQYRKMVMETIEKIMGNLGAADIDHKLEEQLIDGILYAFQEQTTEDSVMLNGFGTVVNALGKRVKPYLPQICGTVLWRLNNKSAKVRQQAADLISRTAVVMKTCQEEKLMGHLGVVLYEYLGEEYPEVLGSILGALKAIVNVIGMHKMTPPIKDLLPRLTPILKNRHEKVQENCIDLVGRIADRGAEYVSAREWMRICFELLELLKAHKKAIRRATVNTFGYIAKAIGPHDVLATLLNNLKVQERQNRVCTTVAIAIVAETCSPFTVLPALMNEYRVPELNVQNGVLKSLSFLFEYIGEMGKDYIYAVTPLLEDALMDRDLVHRQTASAVVQHMSLGVYGFGCEDSLNHLLNYVWPNVFETSPHVIQAVMGALEGLRVAIGPCRMLQYCLQGLFHPARKVRDVYWKIYNSIYIGSQDALIAHYPRIYNDDKNTYIRYELDYIL
B5: ATG9 1-100 (Saccharomyces cerevisiae, UniProt Q12142); sequence looked up; chain MERDEYQLPNSHGKNTFLSRIFGLQSDEVNPSLNSQEMSNFPLPDIERGSSLLHSTNDSREDVDENDLRVPESDQGTSTEEEDEVDEEQVQAYAPQISDG
B6: NOTCH3 EGF5-12 197-505 (Homo sapiens, UniProt Q9UM47); sequence looked up; chain PAVPCAPSPCRNGGTCRQSGDLTYDCACLPGFEGQNCEVNVDDCPGHRCLNGGTCVDGVNTYNCQCPPEWTGQFCTEDVDECQLQPNACHNGGTCFNTLGGHSCVCVNGWTGESCSQNIDDCATAVCFHGATCHDRVASFYCACPMGKTGLLCHLDDACVSNPCHEDAICDTNPVNGRAICTCPPGFTGGACDQDVDECSIGANPCEHLGRCVNTQGSFLCQCGRGYTGPRCETDVNECLSGPCRNQATCLDRIGQFTCICMAGFTGTYCEVDIDECQSSPCVNGGVCKDRVNGFSCTCPSGFSGSTCQ
B7: HNRNPA0 178-304 (Homo sapiens, UniProt Q13151); sequence looked up; chain DIYSGGGGGGSRSSRGGRGGRGRGGGRDQNGLSKGGGGGYNSYGGYGGGGGGGYNAYGGGGGGSSYGGSDYGNGFGGFGSYSQHQSSYGPMKSGGGGGGGGSSWGGRSNSGPYRGGYGGGGGYGGSS
UniProt Q9Z309, sequence (whole entry, looked up): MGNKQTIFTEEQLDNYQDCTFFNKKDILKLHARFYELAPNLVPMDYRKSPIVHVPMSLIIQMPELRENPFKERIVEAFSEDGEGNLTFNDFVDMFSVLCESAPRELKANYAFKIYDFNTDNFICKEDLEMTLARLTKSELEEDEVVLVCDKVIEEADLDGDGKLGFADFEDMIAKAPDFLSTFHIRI
UniProt P06700, sequence (whole entry, looked up): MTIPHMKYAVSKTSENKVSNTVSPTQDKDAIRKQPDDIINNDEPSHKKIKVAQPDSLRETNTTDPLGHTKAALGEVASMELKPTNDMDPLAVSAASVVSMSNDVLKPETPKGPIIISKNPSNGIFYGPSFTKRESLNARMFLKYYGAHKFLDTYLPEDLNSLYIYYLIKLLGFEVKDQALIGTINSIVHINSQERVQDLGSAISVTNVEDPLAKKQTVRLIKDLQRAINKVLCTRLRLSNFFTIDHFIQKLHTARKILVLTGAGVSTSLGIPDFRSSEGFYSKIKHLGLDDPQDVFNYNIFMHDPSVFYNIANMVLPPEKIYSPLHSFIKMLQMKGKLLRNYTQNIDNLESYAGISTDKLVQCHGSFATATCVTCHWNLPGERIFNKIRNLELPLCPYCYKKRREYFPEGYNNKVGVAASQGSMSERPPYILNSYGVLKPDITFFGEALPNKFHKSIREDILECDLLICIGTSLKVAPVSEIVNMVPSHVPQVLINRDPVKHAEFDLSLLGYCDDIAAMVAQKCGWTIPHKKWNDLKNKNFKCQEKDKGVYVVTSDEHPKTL
UniProt Q12124, sequence (whole entry, looked up): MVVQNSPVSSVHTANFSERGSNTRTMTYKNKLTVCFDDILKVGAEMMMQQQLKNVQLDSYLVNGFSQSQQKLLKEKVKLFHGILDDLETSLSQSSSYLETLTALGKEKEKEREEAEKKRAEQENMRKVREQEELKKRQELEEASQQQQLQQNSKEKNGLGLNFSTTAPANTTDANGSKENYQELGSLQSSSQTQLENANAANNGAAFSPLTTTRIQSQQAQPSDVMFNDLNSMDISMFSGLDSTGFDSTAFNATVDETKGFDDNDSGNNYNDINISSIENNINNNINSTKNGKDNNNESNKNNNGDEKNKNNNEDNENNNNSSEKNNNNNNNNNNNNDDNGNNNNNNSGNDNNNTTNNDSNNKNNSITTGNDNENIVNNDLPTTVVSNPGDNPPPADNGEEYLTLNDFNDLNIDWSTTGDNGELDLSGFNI
UniProt Q92804, sequence (whole entry, looked up): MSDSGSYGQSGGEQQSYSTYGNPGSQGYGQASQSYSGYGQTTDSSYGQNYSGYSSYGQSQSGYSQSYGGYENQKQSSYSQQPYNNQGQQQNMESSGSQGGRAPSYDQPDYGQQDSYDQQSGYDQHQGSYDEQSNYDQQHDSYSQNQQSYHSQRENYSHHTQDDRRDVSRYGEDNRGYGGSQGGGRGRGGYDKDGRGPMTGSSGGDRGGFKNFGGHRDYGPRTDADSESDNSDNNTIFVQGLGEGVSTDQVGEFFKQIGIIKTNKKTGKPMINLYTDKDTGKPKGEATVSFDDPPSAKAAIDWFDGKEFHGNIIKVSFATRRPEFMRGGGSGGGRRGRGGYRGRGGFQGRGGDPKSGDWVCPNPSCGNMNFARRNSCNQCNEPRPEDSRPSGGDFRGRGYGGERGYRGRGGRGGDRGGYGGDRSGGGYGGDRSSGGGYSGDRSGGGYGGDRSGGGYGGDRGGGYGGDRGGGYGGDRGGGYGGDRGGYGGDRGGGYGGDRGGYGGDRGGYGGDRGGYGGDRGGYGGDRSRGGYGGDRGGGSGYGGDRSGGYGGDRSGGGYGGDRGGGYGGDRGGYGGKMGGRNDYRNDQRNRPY
UniProt Q9NR61, sequence (whole entry, looked up): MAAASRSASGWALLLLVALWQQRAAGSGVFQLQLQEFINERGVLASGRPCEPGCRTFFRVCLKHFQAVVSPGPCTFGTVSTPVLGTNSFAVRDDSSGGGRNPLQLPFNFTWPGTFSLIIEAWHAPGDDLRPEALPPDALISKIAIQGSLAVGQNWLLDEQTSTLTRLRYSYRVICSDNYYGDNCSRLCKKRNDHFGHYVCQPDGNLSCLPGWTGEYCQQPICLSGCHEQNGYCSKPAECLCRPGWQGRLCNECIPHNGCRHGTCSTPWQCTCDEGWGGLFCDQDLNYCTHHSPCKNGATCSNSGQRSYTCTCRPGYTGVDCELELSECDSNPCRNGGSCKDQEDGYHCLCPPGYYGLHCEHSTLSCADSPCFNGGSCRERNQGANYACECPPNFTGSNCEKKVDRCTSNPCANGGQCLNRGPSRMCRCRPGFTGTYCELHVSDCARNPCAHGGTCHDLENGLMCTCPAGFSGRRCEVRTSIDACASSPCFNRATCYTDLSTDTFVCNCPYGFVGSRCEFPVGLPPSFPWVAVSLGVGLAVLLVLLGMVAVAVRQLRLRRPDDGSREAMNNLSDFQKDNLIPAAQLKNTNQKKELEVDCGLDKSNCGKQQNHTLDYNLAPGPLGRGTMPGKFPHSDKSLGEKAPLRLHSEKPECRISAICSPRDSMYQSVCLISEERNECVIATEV
UniProt Q9BWJ5, sequence (whole entry, looked up): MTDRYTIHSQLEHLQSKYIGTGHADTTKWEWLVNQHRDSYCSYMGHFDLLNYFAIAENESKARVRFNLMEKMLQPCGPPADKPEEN

| Molecule | target or system | test | system | setting | scale | quantity | value |
| --- | --- | --- | --- | --- | --- | --- | --- |
| human filamin A | PP6C (human) | co-immunoprecipitation, IP-MS | CYB5R4 knockout cells | concentration not given | reference: CYB5R4 knockout over parental | log2 fold change | -0.11 |
| B1 (PGD1 1-397) | MED2 1-431 (Saccharomyces cerevisiae, UniProt Q12124) | cryo-EM |  |  |  | binding | binds |
| B2 (nlpI) | prc K477A (Escherichia coli, UniProt P23865) | pull-down |  |  |  | binding | binds |
| LVLAMWKAGFFKRNR (ITGA2B cytoplasmic tail) | Cib2 (Mus musculus, UniProt Q9Z309) | ELISA | peptide |  |  | binding | binds |
| GSGSPVPSTPPTPSPSTPPTPSPSCCHPRR (IGHA1 hinge 252-276 (Homo sapiens); GalNAc glycosylated) | TFRC fragment (Homo sapiens) | SPR | peptide |  |  | binding | binds |
| B3 (SIR4 1150-1358) | SIR2, His6, RED-tris-NTA label (Saccharomyces cerevisiae, UniProt P06700) | MST |  |  |  | binding | binds |
| DGVYTGLSTRNQETYETLKH (FCER1G 62-81; phosphotyrosine) | SYK (Homo sapiens, UniProt P43405) | FIDA | peptide |  |  | binding | binds |
| B4 (SF3B1 454-1304 R625H) | SF3B5 (Homo sapiens, UniProt Q9BWJ5) | cryo-EM |  |  |  | binding | binds |
| B5 (ATG9 1-100) | ATG23 M340E (Saccharomyces cerevisiae, UniProt Q06671) | pull-down |  | 15 minutes, 4 °C |  | binding | binds |
| B6 (NOTCH3 EGF5-12 197-505) | DLL4 27-400 (Homo sapiens, UniProt Q9NR61) | SPR |  |  |  | binding | binds |
| B7 (HNRNPA0 178-304) | TAF15 396-592 (Homo sapiens, UniProt Q92804) | hydrogel trapping |  |  |  | binding | binds |
| B5 (ATG9 1-100) | ATG23 A34E (UniProt Q06671) | pull-down |  | 5 µM, 15 min, pH 8, 4 °C, NaCl 150 mM |  | binding | binds |
| YLYQWLGAPVPYPDPLEPRREVCELNPDCDELADHIGFQEAYRRFYGPV (BGLAP mature, uncarboxylated (Homo sapiens)) | GGCX (Homo sapiens, UniProt P38435-1) | cross-linking | peptide |  |  | binding | binds |
| clathrin heavy chain 2, human | PP6C (human) | co-immunoprecipitation, IP-MS | CYB5R4 knockout cells | concentration not given | reference: CYB5R4 knockout over parental | log2 fold change | -0.6 |

For quick reference, copied from above:
| Molecule | target or system | test | system | setting | scale | quantity | value |
| --- | --- | --- | --- | --- | --- | --- | --- |
| B2 (nlpI) | prc K477A (Escherichia coli, UniProt P23865) | pull-down |  |  |  | binding | binds |
| human filamin A | PP6C (human) | co-immunoprecipitation, IP-MS | CYB5R4 knockout cells | concentration not given | reference: CYB5R4 knockout over parental | log2 fold change | -0.11 |
